Published values pooled from the literature.
Compare with care: the assays were run in different laboratories.
Cell line: HCT-116

Structure (SMILES)	test	conditions	how to read	selectivity index
CCn1c(C)c(N=Nc2ccccc2)sc1=NN=C(C)c1c(O)c2ccccc2oc1=O	cell growth, MTT	–	reference: IC50 BJ-1 over HCT-116	> 2.12
Cc1cc(NS(=O)(=O)c2ccc(NC(=O)/C(C#N)=C/c3ccc(N4CCCC4)cc3)cc2)no1	cytotoxicity, MTT	–	reference: HSF over HCT-116 IC50	> 2.03
CCOC(=O)c1sc(=NN=C(C)c2c(O)c3ccccc3oc2=O)n(CC)c1C	cell growth, MTT	–	reference: IC50 BJ-1 over HCT-116	> 4.05
CC1(P2(=O)CCCCC2)C=CCC=C1	MTT	72 h	reference: IC50 HaCaT over IC50 HCT-116	1
COc1nc(NCc2cn(-c3ccc(C(=O)Nc4ccc([N+](=O)[O-])cc4)cc3)nn2)nc(OC)n1	MTT	72 h	reference: normal colonocytes over HCT-116	1.1
CC(C)c1ccc(/C=C2\N=C(SCC(=O)O)N(c3ccccc3)C2=O)cc1	–	–	reference: BJ1 IC50 over HCT-116 IC50	1.8
O=P1(c2ccccc2)CCCCC1	MTT	72 h	reference: IC50 HaCaT over IC50 HCT-116	1
CCn1c(C)c(N=Nc2ccc(C)cc2)sc1=NN=C(C)c1c(O)c2ccccc2oc1=O	cell growth, MTT	–	reference: IC50 BJ-1 over HCT-116	> 2.49
COc1nc(NCc2cn(-c3ccc(NC(=O)c4ccc(Cl)cc4)cc3)nn2)nc(OC)n1	MTT	72 h	reference: normal colonocytes over HCT-116	0.54
CCn1c(C)csc1=NN=C(C)c1c(O)c2ccccc2oc1=O	cell growth, MTT	–	reference: IC50 BJ-1 over HCT-116	> 2.75
O=c1[nH]cc(F)c(=O)[nH]1	cytotoxicity, MTT	–	reference: HSF over HCT-116 IC50	4.51
COc1nc(NCc2cn(-c3ccc(C(N)=O)cc3)nn2)nc(OC)n1	MTT	72 h	reference: normal colonocytes over HCT-116	0.24
CC(=NN=c1[nH]c(C)c(N=Nc2ccc(C)cc2)s1)c1c(O)c2ccccc2oc1=O	cell growth, MTT	–	reference: IC50 BJ-1 over HCT-116	> 2.19
CC1(P2(=O)CCCCC2)CCCCC1	MTT	72 h	reference: IC50 HaCaT over IC50 HCT-116	1.4
COc1nc(NCc2cn(-c3ccc(NC(=O)c4ccc(Br)cc4)cc3)nn2)nc(OC)n1	MTT	72 h	reference: normal colonocytes over HCT-116	0.27

Repeated from above:
Structure (SMILES)	test	conditions	how to read	selectivity index
CCOC(=O)c1sc(=NN=C(C)c2c(O)c3ccccc3oc2=O)n(CC)c1C	cell growth, MTT	–	reference: IC50 BJ-1 over HCT-116	> 4.05
